# Measured values gathered from unrelated publications.
# ± marks the error that the study gave.
SMILES,assay,system,conditions,scale,measurement,result
O=C(c1cccnc1-c1ccncc1)N1CCC(O)(Cc2ccccc2)CC1,,"healthy Japanese adults, plasma","oral, 600 mg single dose",,terminal half-life,8.7 h
CNC(=O)c1ccc(-c2cnc3ncc(Cc4ccc5ncccc5c4)n3n2)cc1F,"item: Ascites, all grades",cancer patients,"oral, 600 mg twice daily, other expansion cohort, any causality",,patients with adverse event,0%
NS(=O)(=O)c1cc(C(=O)O)c(NCc2ccco2)cc1Cl,item: phlebitis,healthy men,"oral, 8 days, treatment-emergent, crossover trial",,subjects with adverse event,0%
N#Cc1cccc(-c2ccc3ncc(-c4cc(F)cc(F)c4)c(N4CCC(N)CC4)c3c2)c1O,,"healthy male, faeces","oral, 20 mg, 120 h, 14C-labelled",relative to: dose,radioactivity recovered,39.7%
COc1ncc(-c2nc3c(n2C(C)C)[C@H](c2ccc(Cl)cc2)N(c2cc(Cl)cn(C)c2=O)C3=O)c(OC)n1,LC-MS/MS,"human, plasma","oral, 4 mg, cycle 1 day 14, low-dose arm",,Cmax,25.6 ng/mL
Cn1cc(Nc2nccc(-c3ccc4c(c3)CN(C3COC3)CC[C@H]4NC(=O)c3cn(C(C)(C)C)nn3)n2)cn1,,"human, whole blood","300 mg twice daily, day 7",relative to: pre-dose baseline,transitional B cell count change,120%
O=C(O)CCC(=O)O.[2H]C([2H])([2H])Oc1cc(C)c2[nH]ccc2c1CN1CC[C@@H](C2CC2)C[C@H]1c1ccc(C(=O)O)cc1,,healthy Chinese subjects,"100 mg, single ascending dose",,TEAE urine bacteria positive,16.7%
CCC(=O)N(CCC(c1ccc2c(c1)OCO2)c1ccccc1OC)Cc1ccccc1 (stereo not shown),,"female athymic nude mouse, blood","i.p., 60 mg/kg twice daily, 14 days, group mean",,MCV,45.8 fL
CC(C)Oc1c(NC(=O)c2ccc(NC(=O)[C@H](CC(N)=O)NC(=O)c3ccc(NC(=O)c4ccc(C#N)cc4)cc3)cc2)ccc(C(=O)N/N=C/c2ccc(C(=O)O)cc2)c1O,absorbance,DMSO,"40 °C, PSS to ground state relaxation",,thermal half-life,1.2 h
O=C(CCCCCCC(=O)Nc1ccc(CC[18F])cc1)NO,,"athymic nu/nu male mice, LNCaP xenograft, lungs","intravenous, 2 h",,tissue uptake,1.6 ± 0.4 %ID/g
FC(F)(F)c1ccc(CNc2ccc(Cc3c[nH]c4ncc(Cl)cc34)cn2)cn1,item: Rash,"patients with advanced solid tumours, non-TGCT cohort","oral, 1000 mg/day, grade 3 or higher",,treatment-related adverse events,0%
Cl.[2H]C([2H])([2H])CC(=O)c1cnc(NC(=O)C2CC2)cc1Nc1cccc(-c2ncn(C([2H])([2H])[2H])n2)c1OC,median,human,"oral, 20 mg twice daily, day 1, fed, liquid, multiple dose",,Tmax,3.1 h
O=C(Nc1nc2cccc(-c3ccc(CN4CCS(=O)(=O)CC4)cc3)n2n1)C1CC1,item: nausea,human rheumatoid arthritis patients,"oral, 75 mg once daily, 4 weeks, regardless of relatedness",,treatment-emergent adverse events,0%
CNCc1ccc(-c2[nH]c3cc(F)cc4c3c2CCNC4=O)cc1,item: Constipation,human patients,"oral, dose not given, all grades, all doses",,patients with adverse event,23.2%
C=CC(=O)Nc1cc(Nc2nccc(-c3cn(C4CC4)c4ccccc34)n2)c(OC)cc1N(C)CCN(C)C,,"BALB/c nude mice, LU0387 xenograft, serum","oral, 40 mg/kg",,uric acid,235 ± 13.8 µmol/L
C[Si]1(C)O[Si](C)(C)O[Si](C)(C)O[Si](C)(C)O[Si](C)(C)O1,,1-octanol/water,"0.001-0.003 µg/L in water, 34.8 °C",,log KOW,8.47
CCc1cc(C(=O)NC)c2nccc(N3CCc4c(cc(Cn5ccnc5)cc4-c4cn(C)nc4C(F)(F)F)C3=O)c2c1,,Sprague Dawley rat,"oral, 100 mg/kg once daily, day 2, 7-day toxicology study",,body weight,227 ± 2.6 g
Cc1ccc(N(C)C(=O)/C=C/c2ccco2)cc1,cold plate test,mice,"oral, 30 mg/kg single, 45 min",,licking latency,18.5 ± 0.7 s
CNC(=O)c1cc(Oc2ccc(NC(=O)Nc3cc(C(C)(C)C)nn3-c3ccc4ncccc4c3)c(F)c2)ccn1,item: worst grade 1,human,"oral, dose not given, cycles 1 and 2, Medium AUC(0-4 h) subgroup",,patients with visual abnormality AE,29%
CCCn1cc(C)c2c(=O)[nH]c(-c3cc(S(=O)(=O)N4CCN(CC)CC4)ccc3OCC)nc21,,human,"concentration not given, treatment-emergent adverse event",,blood fibrinogen decreased,11.1%
C[C@H]1CN(C(=O)CC#N)[C@]12CCN(c1ncnc3[nH]ccc13)C2,,healthy human,"oral, 3 mg single",,subjects with Arthralgia,12.5%
COc1cc(/C=C/C(=O)CC(=O)/C=C/c2ccc(O)c(OC)c2)ccc1O,,red blood cells,concentration not given,relative to: Triton X-100,hemolysis,0.53%
Cn1cnc([N+](=O)[O-])c1Sc1ccccc1C(=O)NCCOc1ccnc2cc3c(cc12)OCO3,LC-UV/MS,"Sprague-Dawley rat, whole blood","10 µM, 37 °C",,half-life,0.482 h
O=C(O)CCCCCCCCC(=O)O,,"human, plasma",endogenous control diurnal,relative to: daily mean concentration,relative peak deviation,62.1 ± 8.6%
NC1(C(=O)N[C@@H](CCO)c2ccc(Cl)cc2)CCN(c2nc[nH]c3nccc2-3)CC1,,metastatic CRPC patients,"320 mg b.i.d., any grade, treatment-related, with: enzalutamide 160 mg daily",,incidence of Arthralgia,0%
CCN1/C(=C/C(C)=O)Sc2ccc(F)cc21,,cynomolgus monkey,"oral, 10 mg/kg, 6 h post-dose",relative to: pre-dose,mean blood pressure change,113 ± 12.7%
CO[C@@H]1[C@H](OC(=O)N2CC(CCN3CCOCC3)C2)CC[C@]2(CO2)[C@H]1[C@@]1(C)O[C@@H]1CC=C(C)C,,humans,"subcutaneous, 1.8 mg twice weekly for 4 weeks, day 28",relative to: baseline,D-dimer,-0.05 ± 0.07 mg/dL
CN(C(=O)n1cnc(-c2cccnc2)c1)C1CCCCC1,,"Wistar rat, cerebellum","oral, 10 mg/kg of BIA 10-2474, 4 h, single dose",,concentration,30.8 ± 8.8 ng/g
N=C(N)NCCNC(=O)C1(Nc2ccccc2)CCN(Cc2ccccc2)CC1,,"female Sprague-Dawley rats, plasma","intravenous, 2.5 mg/kg",,mean residence time,0.1 h
Cc1ccc(Sc2ccccc2N2CCNCC2)c(C)c1,item: metrorrhagia,healthy adult men,"oral, 20 mg daily, 12 days",,participants with TEAE,0%
CC(C)(C(=O)N1CCOc2c(C#N)cncc2C1)C(F)F,item: contact dermatitis,human,"oral, 10 mg once daily, 14 days, multiple ascending dose",,subjects with adverse event,0%
O=C(Nc1cnccc1Cl)N1CCN(Cc2ccc3c(c2)OC(F)(F)O3)CC1,,"young men, plasma","oral, 10 mg once daily, day 10, normalized to 10 mg",,dose-normalized AUC(0-tau),655 ng·h/mL
CC(C)(C)c1ccc(O)c(CN(Cc2cc(C(C)(C)C)ccc2O)C2CCC(NC(N)=O)CC2)c1 (stereo not shown),,"C57BL/6 mice, male, brain","intraperitoneal, 25 mg/kg, single dose",,dose-normalised Cmax,64 ng/g per mg/kg
O=C1NCCc2nc(OCc3cccc(F)c3)ccc21,item: Mydriasis,"Sprague-Dawley rat, male","oral, 100 mg/kg, 1 h, score 0 none to 2 full",direction not given,Irwin test score,0.4
O=C(COc1ccc(Cl)cc1)NC12CC(c3nnc([C@H]4C[C@@H](OC(F)(F)F)C4)o3)(C1)C2,,human both sexes,"oral, 145 mg once daily, 14 days",,participants with TEAE,100%
Cc1cc(NC2CCN(C(=O)OC3CCN(C(=O)/C=C/CN(C)C)C3)CC2)n2ncc(C(C)C)c2n1 (stereo not shown),"Phase I dose escalation CTCAE v4.0, item: maculo-papular rash",patients with advanced solid tumours,"dose not given, TIW dosing any grade",,patients with adverse event,0%
CCCCCCCCCCCC[N+](C)(C)Cc1ccccc1.[Br-],,mouse erythrocytes,"10 µM, 30 min, 37 °C",,hemolysis,~7%
Cc1cc(-c2nccc3c2ccn3CC(=O)Nc2ccc(-c3cnccn3)cn2)ccn1,,healthy human volunteers,"oral, 20 mg single dose, single ascending dose",,nervous system TEAEs,0%
Cc1c(-c2ccc(N3CCc4cccc(C(=O)Nc5nc6ccccc6s5)c4C3)nc2C(=O)O)cnn1CC12CC3(C)CC(C)(C1)CC(OCCNCC[C@H](O)CO)(C3)C2,,anaesthetized male beagle dog,"iv infusion, 0.01 mg/kg/min, 150 min",,plasma concentration,< 2 ng/mL
NC(CO)(CO)CCc1ccc(Sc2cccc(OCc3ccccc3)c2)cc1Cl,,"human, supine","oral, 3 mg, 0 to 312 h, with: cyclosporin 100 mg",,"pulse rate AUEC, mean",18800 h×bpm

# For quick reference, copied from above:
SMILES,assay,system,conditions,scale,measurement,result
O=C1NCCc2nc(OCc3cccc(F)c3)ccc21,item: Mydriasis,"Sprague-Dawley rat, male","oral, 100 mg/kg, 1 h, score 0 none to 2 full",direction not given,Irwin test score,0.4
O=C(COc1ccc(Cl)cc1)NC12CC(c3nnc([C@H]4C[C@@H](OC(F)(F)F)C4)o3)(C1)C2,,human both sexes,"oral, 145 mg once daily, 14 days",,participants with TEAE,100%
Cc1cc(NC2CCN(C(=O)OC3CCN(C(=O)/C=C/CN(C)C)C3)CC2)n2ncc(C(C)C)c2n1 (stereo not shown),"Phase I dose escalation CTCAE v4.0, item: maculo-papular rash",patients with advanced solid tumours,"dose not given, TIW dosing any grade",,patients with adverse event,0%
CCCCCCCCCCCC[N+](C)(C)Cc1ccccc1.[Br-],,mouse erythrocytes,"10 µM, 30 min, 37 °C",,hemolysis,~7%
Cc1cc(-c2nccc3c2ccn3CC(=O)Nc2ccc(-c3cnccn3)cn2)ccn1,,healthy human volunteers,"oral, 20 mg single dose, single ascending dose",,nervous system TEAEs,0%
